Measurements of several laboratories.
Each numbered part is a random draw from the data of one study; scales do not carry over between parts.

Sample 1
Target: Sal-like protein 4, full length isoform B (SALL4, Homo sapiens, UniProt Q9UJQ4-2, residues 1-616)
Method: universal PBM
Form: double-stranded DNA, one strand shown
Medium: in vitro
Concentration: not given
Setting: 8-mer, flanks averaged, mean of replicates
Direction: higher = stronger binding
Strand | E-score
CAATCATA | 0.35
GACTAGCC | -0.218
AGAGAGAG | -0.0947
CCACTCTC | -0.136
AGACGTGA | 0.0635
ATCATCCA | 0.108
CATACATC | 0.235

Sample 2
Target: Interferon regulatory factor 7, full length, phosphomimetic (IRF7, Homo sapiens, UniProt Q92985, residues 1-503, S101K/S471D/S472D/S475D/S476D/S477D/S483D/S484D/S487D)
Chain of UniProt Q92985 (whole entry, unmodified, looked up): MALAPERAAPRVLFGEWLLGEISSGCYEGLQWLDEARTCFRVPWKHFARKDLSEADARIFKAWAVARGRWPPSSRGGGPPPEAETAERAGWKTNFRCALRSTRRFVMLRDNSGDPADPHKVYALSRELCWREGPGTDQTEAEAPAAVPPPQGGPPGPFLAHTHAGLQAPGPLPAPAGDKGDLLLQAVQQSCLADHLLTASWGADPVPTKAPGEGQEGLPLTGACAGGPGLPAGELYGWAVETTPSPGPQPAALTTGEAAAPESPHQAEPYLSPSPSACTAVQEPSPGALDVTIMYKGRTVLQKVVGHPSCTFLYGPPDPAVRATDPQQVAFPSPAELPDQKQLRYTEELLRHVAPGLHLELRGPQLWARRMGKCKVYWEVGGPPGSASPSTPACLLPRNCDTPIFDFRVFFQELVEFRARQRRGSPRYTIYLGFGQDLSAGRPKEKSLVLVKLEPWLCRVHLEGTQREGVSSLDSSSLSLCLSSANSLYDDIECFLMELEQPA
Method: protein-binding microarray
Form: double-stranded DNA, one strand shown
Medium: in vitro
Concentration: 250 nM
Setting: 60-bp whole probe
With: salmon DNA 0.4 mg/ml
Baseline: random background probes
Direction: higher = stronger binding
All sequences stand within: GCCTAGCAC … GTCTTGATTCGCTTGACGCTGCTG
Strand | log fluorescence [z-score]
AGCAAAAATGATTGGTTGAAGTGCTAG | -0.699
GACAATTTGGAAACCGAGTGGTGCTAG | 0.163
TCAACTTTCTTAATGCTACTGTGCTAG | 0.627
TTAGATATCGGGACTGGAGTAGTGCTA | -0.578
AACGGTTTCGGTTCCGGGACGTGCTAG | 12.6
TCATCTCACGCATCTGAAACTGTGCTA | 0.343

Sample 3
Target: Prothrombin, mature alpha-thrombin (F2, Homo sapiens, UniProt P00734)
Method: aptamer microarray, sandwich
Form: DNA with 2'F-ANA
Medium: in vitro
Concentration: 200 nM
Setting: whole 15-mer aptamer, many near background
With: Cy3 exosite-II aptamer, 400 nM
Direction: higher = stronger binding
Strand: GGTTGGTGTGGTTGG
Modification | mean fluorescence intensity
2'F-ANA at 4 6 9 11 12 13 | 238 a.u.
2'F-ANA at 4 5 7 8 9 11 12 13 14 | 46.5 a.u.
2'F-ANA at 2 3 6 7 11 13 15 | 527 a.u.
2'F-ANA at 2 6 9 10 11 15 | 94.9 a.u.
2'F-ANA at 1 2 3 4 5 10 11 14 | 46.9 a.u.
2'F-ANA at 2 3 4 5 8 9 11 12 13 15 | 95.3 a.u.

Single results of other studies
Molecule | target | test | test system | setting | scale | measurement | value
PhoQ, residues 284 288 289 292 302 303 WSHMKI | PhoP, residues 12 14 15 18 19 NQGLL (Escherichia coli, UniProt P23836) | Sort-seq, measured: YFP reporter | E. coli | PhoQ-PhoP variant library, with: 10 µM Mg2+ | baseline: high Mg2+ state, higher = stronger signaling | fold induction | 0.932
